Results pooled from the literature.
“And” joins repeats or separate records; there may be more than shown. ± marks the error that the study gave.

Compound	test	system	conditions	scale	quantity	value
O=C(Nc1cnccc1-c1ccc([18F])cc1)c1ccnc(NC(=O)C2CC2)c1	ex vivo gamma counting	FVB/NJ mice, both sexes, large intestine	intravenous, 120 min, mean, P-gp inhibitor pretreatment, with: tariquidar 15 mg/kg iv	–	SUV	1.26
CC(C)n1ncc2c(C(=O)NCC3CCN3)cc(C3CC3)nc21 (centres unmarked)	metabolic stability	mouse, liver microsomes	–	–	microsomal CLint	59.1 µL/min/mg
CC(C)(O)c1ncc([S@](N)(=O)=NC(=O)Nc2c3c(cc4c2CCC4)CCC3)s1	–	healthy human	oral, 300 mg single dose, capsule formulation	–	total adverse events	33%
CC1Cc2ccccc2N1C(=O)CN1CCN(Cc2ccccc2)CC1 (centres unmarked)	–	female NMRI mice, whole blood	intraperitoneal, 10 mg/kg free base, 15 min	–	blood concentration	197 ng/mL
CC[C@H](C)[C@@H](C(=O)N[C@@H](CC(C)C)C(=O)N[C@@H](CO)C(=O)N[C@@H](CO)C(=O)N[C@H](C(=O)N[C@@H](CCC(=O)O)C(=O)N[C@H](C(=O)NCC(=O)N[C@@H](CO)C(=O)N[C@@H](CC(N)=O)C(=O)N[C@H](C(=O)N1C[C@H](O)C[C@H]1C(N)=O)[C@@H](C)O)C(C)C)[C@@H](C)O)N(C)C(=O)[C@H](C)NC(=O)CN(C)C(=O)[C@H](Cc1ccccc1)NC(=O)[C@H](CO)NC(=O)[C@H](CO)NC(=O)[C@H](CCCNC(=N)N)NC(=O)[C@H](CCC(N)=O)NC(=O)[C@H](CC(C)C)NC(=O)[C@H](Cc1ccccc1)NC(=O)[C@H](CCCC(=O)O)NC(=O)[C@H](C)NC(=O)[C@H](CC(C)C)NC(=O)[C@H](CCCNC(=N)N)NC(=O)[C@H](CCC(=O)O)NC(=O)[C@@H](NC(=O)[C@H](C)NC(=O)[C@@H]1CCCCNC(=O)C[C@H](NC(=O)[C@H](CCCNC(=N)N)NC(=O)CC[C@H](NC(=O)CCCCCCCCCCCCCCCCCCC(=O)O)C(=O)O)C(=O)NCC(=O)N[C@@H]([C@@H](C)O)C(=O)N[C@@H](C)C(=O)N[C@@H]([C@@H](C)O)C(=O)N1)[C@@H](C)O	SEC	formulation, Tris buffer, mannitol, NaCl	1 weeks, pH 6.6, 40 °C	–	covalent oligomers	≤ 0.2%
Cc1nn(-c2nc3c(F)cc(F)cc3s2)c(O)c1C(c1ccc(C(F)(F)F)cc1)c1c(C)nn(-c2nc3c(F)cc(F)cc3s2)c1O	–	ICR mouse, plasma	intravenous, 5 mg/kg	–	AUC(0-t)	36000 ng·h/mL and 46800 ng·h/mL and 87800 ng·h/mL
CC(C)Cn1cc(Cc2cccc(OC(C)(C)C(=O)O)c2)c2ccc(C(=O)N[C@@H](C)c3cc(F)cc(C(C)(C)C)c3)cc21	–	mouse liver microsomes	1 µM, with: microsomes 1 mg/mL	–	half-life	57 min
C=CC(=O)N1CCCC(n2c(=O)c3ncccc3n(Cc3ccc(Oc4ccccc4)cc3)c2=O)C1 (centres unmarked)	metabolic stability	male beagle dog, hepatocytes	1 µM, 90 min	–	compound remaining	26.8%
[O-]c1cccc(-c2cccc([O-])n2)n1.[Ru+2].c1ccc(-c2ccnc3c2ccc2c(-c4ccccc4)ccnc23)cc1.c1ccc(-c2ccnc3c2ccc2c(-c4ccccc4)ccnc23)cc1	–	acetonitrile	basic deprotonated form	–	singlet oxygen quantum yield	< 0.01
COc1ccc(C(N)=O)cn1	–	Han Wistar rats, male, plasma	oral, 30 mg/kg, 1.50 h	–	concentration at time	63.4 µM
O=C(Nc1cnccc1-c1ccc([18F])nc1)c1ccnc(NC(=O)C2CC2)c1	–	FVB/NJ mice, both sexes, liver	intravenous, 40 min, median, no P-gp inhibitor	–	SUV	8.66
O=C(O)CN1CCN(CC(=O)O)CCN(CC(O)CN(CC(O)CN2CCN(CC(=O)O)CCN(CC(=O)O)CCN(CC(=O)O)CC2)C[C@H](O)[C@@H](O)[C@H](O)[C@H](O)CO)CCN(CC(=O)O)CC1 (some centres unmarked)	pH-potentiometry, spectrophotometry, refers to: CuH2L	–	25 °C, 0.15 M NaCl	–	log K	9.39
C[C@H](C(=O)O)c1ccc(-c2ccccc2)c(F)c1	HPLC	reference solution	concentration not given, 12 h, room temperature, solution stability	–	peak area change	≤ 2%
C=C(NC(=O)c1csc(-c2nc3c(cc2O)-c2nc(cs2)C(=O)NC(C(C)O)C(=O)NC(=C(C)OC)c2nc(cs2)C(=O)NC2c4nc(cs4)C(=O)NC(COC(=O)c4c5c6c(cccc6n4O)COC(=O)C(OC4CC(C)(O)C(N(C)C)C(C)O4)C2OC5)c2nc-3cs2)n1)C(N)=O (centres unmarked)	–	ICR mice, Streptococcus pneumoniae ATCC 49169 infected, immunocompromised, blood	intravenous, 16 mg/kg/day once daily	–	AUC(0-t)	1810 ng·h/mL
CCCCN1C(=O)c2cccc3c(NCCCCCCN4CCOCC4)ccc(c23)C1=O	–	acetonitrile	–	–	fluorescence quantum yield	0.92
Cc1cc(-c2ccc(C(=O)[C@@H]3CCCC[C@H]3C(=O)Nc3cnn4c3C(=O)NCC4)cc2)[nH]n1	–	human, faeces	oral, 200 mg, 216-240 h, discharged subjects excluded	baseline: dose	recovery of radioactivity per interval	1.19%
CNc1cc(C)c(C(N)=O)cn1	–	Han Wistar rats, male, plasma	oral, 30 mg/kg, 2.00 h	–	concentration at time	63.3 µM
CNC(NN=Cc1ccc([N+](=O)[O-])o1)=[S+][Au-][Cl]	1H NMR	DMSO-d6	time compound intact	–	solution stability	≥ 1 week

Compound	test	system	conditions	scale	quantity	value
O=C(Cc1ccc(OCc2ccccc2)cc1)NC1(C(=O)O)CCN(C(=O)c2ccc(-c3cccc(Cl)c3)cc2)CC1	–	mouse BALB/c female	intraperitoneal, 20 mg/kg	–	apparent clearance CL/F	50.1 ± 1.17 mL/min/kg
NC(=O)c1cccc(NC(=O)c2cc(-c3ccc(Br)cc3)n(-c3ccccc3)n2)c1	–	human liver microsomes	4 h	–	depletion	< 15%
C/C(N)=N/C(=N\S(=O)(=O)c1ccc(C(F)(F)F)cc1)N1C[C@H](c2ccccc2)C(c2ccc(Cl)cc2)=N1	–	C57BL/6 mouse, kidney	intravenous, 10 mg/kg	–	Tmax	6 min
O=C(NS(=O)(=O)c1cccs1)c1cc2ccccc2n1Cc1ccc(Br)c2ccccc12	–	Sprague-Dawley rat, male, ankle joint tissue	oral, 2 mg/kg, 2 h	–	concentration	47700 ng/g and 66700 ng/g and 137000 ng/g
O=C(NCC1OC2CCC=CCCC2O1)c1ccc(COCCOCCOCC[18F])cc1 (centres unmarked)	–	healthy female BALB/c nude mice, pancreas	intravenous, 7.4 MBq per mouse, 30 min	–	tissue uptake	2 ± 0.1 %ID/g
C=CC(=O)Nc1cc(Nc2nccc(-c3c[nH]c4ccccc34)n2)c(OC)cc1N(C)CCN(C)C	storage stability	human plasma	5 h, -80 °C, LLOQ level	–	recovery	99.9%
C#CCOCCOCCOCCOCCn1cc(C(ONC(=O)/C=C/C(C)=C/C2(C)Oc3cc(N(C)C)ccc3C2=O)(c2ccc(C)cc2)c2ccc(C)cc2)nn1 (centres unmarked)	HPLC	aqueous buffer, 20% acetonitrile	concentration not given, 43 min, pH 3	baseline: initial prodrug amount	release from prodrug hydrolysis	93.5%
Cc1noc(C)c1Cn1cc(N2C(=O)CN(Cc3cccc(O[C@@H]4O[C@H](C(=O)O)[C@@H](O)[C@H](O)[C@H]4O)c3)C2=O)cn1	–	Sprague-Dawley rat, male	oral, 100 mg/kg of parent drug, 24 h	–	plasma concentration	36 ng/mL
COCC1CN(C2CCN(c3cc(OC)c(Nc4ncc(Br)c(Nc5ccc6c(c5P(C)(C)=O)OCCO6)n4)cc3C)CC2)C1	–	EGFR-mutant NSCLC patients, plasma	oral, 10 mg multiple doses, geometric mean	–	Cmax at steady state	37.8 ng/mL
CC(C)C[C@H](NC(=O)[C@H](CCCCN)NC(=O)[C@H](CC(C)C)NC(=O)[C@H](CCCCN)NC(=O)C1CCC=CCCC(NC(=O)[C@H](CCCCN)NC(=O)[C@H](CC(C)C)NC(=O)[C@H](CCCCN)NC(=O)[C@@H](N)CC(C)C)C(=O)N[C@@H](CCCCN)C(=O)N2CCC[C@@H]2C(=O)NCC(=O)N[C@@H](CCCCN)C(=O)N1)C(N)=O (some centres unmarked)	RP-HPLC C18	–	hydrophobicity	–	retention time	15.7 min
CC(C)[C@H](NC(=O)[C@H](Cc1c[nH]c2ccccc12)NC(=O)[C@H](CCCNC(=N)N)NC(=O)[C@H](CCCNC(=N)N)NC(=O)[C@@H](NC(=O)[C@@H](NC(=O)[C@H](CCCNC(=N)N)NC(=O)[C@@H](NC(=O)[C@@H](NC(=O)[C@H](CCCNC(=N)N)NC(=O)[C@H](CCCNC(=N)N)NC(=O)[C@@H](NC(=O)[C@H](Cc1c[nH]c2ccccc12)NC(=O)[C@H](CCCNC(=N)N)NC(=O)[C@H](CCCNC(=N)N)NC(=O)[C@@H](NC(=O)[C@H](CCCNC(=N)N)NC(=O)[C@H](CCCNC(=N)N)NC(=O)[C@@H](NC(=O)[C@H](Cc1c[nH]c2ccccc12)NC(=O)[C@H](CCCNC(=N)N)NC(=O)[C@@H](N)CCCNC(=N)N)C(C)C)C(C)C)C(C)C)C(C)C)C(C)C)C(C)C)C(C)C)C(=O)N[C@@H](CCCNC(=N)N)C(=O)N[C@@H](CCCNC(=N)N)C(=O)O	–	CD1 mouse, urine	intravenous, 15 mg/kg, 16 h, [14C]-labelled compound	–	creatinine	6.7 mg/dL
CSCC[C@H](N)C(=O)N[C@@H](CO)C(=O)N[C@H](C(=O)N[C@@H](C)C(=O)NCC(=O)N[C@@H](CC(C)C)C(=O)N[C@@H](CCCCN)C(=O)N[C@@H](CCCCN)C(=O)N[C@@H](CCC(N)=O)C(=O)N[C@@H](Cc1c[nH]c2ccccc12)C(=O)N[C@@H](Cc1c[nH]cn1)C(=O)N[C@@H](CCCCN)C(=O)N[C@@H](C)C(=O)N[C@H](C(=O)N[C@@H](CCC(N)=O)C(=O)N[C@@H](CCCCN)C(=O)N[C@H](C(=O)N[C@@H](CO)C(=O)N[C@@H](CCC(=O)O)C(=O)N[C@@H](CCCCN)C(=O)N[C@H](C(=O)NCC(=O)NCC(=O)N[C@@H](C)C(N)=O)C(C)C)C(C)C)[C@@H](C)O)C(C)C	circular dichroism titration	100% DOPS liposomes	50 µM, pH 7.4, 20 °C	–	ΔG of binding	-7.2 kcal/mol
O=S(=O)(NCc1ccncc1)c1ccc(C2CCCCC2)cc1	–	CK-p25 mouse and littermates	intraperitoneal, 0.3 mg/kg daily, 6 weeks	–	swim performance	no effect
CCC1CNC(CC)CN(C(C(=O)[O-])c2ccc(C(=O)[O-])cc2)C(CC)CN(CC(=O)[O-])C(CC)CN1.[Mn+2] (centres unmarked)	ICP-MS	BALB/c mouse, liver	intravenous, 0.05 mmol/kg, 5 min, without anaesthesia	–	Mn content	5.03 ± 0.39 µg/g
COc1ccc(CCC(C)N2CCc3cc(O[11CH3])c(OC)cc3C2)cc1 (racemic)	–	plasma	injection, 30 min	baseline: radioactivity	polar metabolite fraction	87.5 ± 2.9%
COc1ccc2c(c1)CCn1c[n+]3c(c1-2)-c1ccc(OC)cc1CC3	–	female NSG mice, blood	6 mg/kg, day 20, 5 days per week	–	Basophils	4 ± 2.69%
C=C[C@]1(C)C[C@@H](OC(=O)CSc2ccc(NC(=O)c3ccco3)cc2)[C@]2(C)[C@H](C)CC[C@]3(CCC(=O)[C@H]32)[C@@H](C)[C@@H]1O	–	Mycoplasma gallisepticum-infected chickens, plasma	intramuscular, 80 mg/kg, 8 h	–	plasma concentration	99.6 ng/mL and 121 ng/mL and 105 ng/mL and 122 ng/mL and 104 ng/mL and 249 ng/mL and 242 ng/mL and 163 ng/mL

Excerpt of the above:
Compound	test	system	conditions	scale	quantity	value
O=C(NCC1OC2CCC=CCCC2O1)c1ccc(COCCOCCOCC[18F])cc1 (centres unmarked)	–	healthy female BALB/c nude mice, pancreas	intravenous, 7.4 MBq per mouse, 30 min	–	tissue uptake	2 ± 0.1 %ID/g
C=CC(=O)Nc1cc(Nc2nccc(-c3c[nH]c4ccccc34)n2)c(OC)cc1N(C)CCN(C)C	storage stability	human plasma	5 h, -80 °C, LLOQ level	–	recovery	99.9%
C#CCOCCOCCOCCOCCn1cc(C(ONC(=O)/C=C/C(C)=C/C2(C)Oc3cc(N(C)C)ccc3C2=O)(c2ccc(C)cc2)c2ccc(C)cc2)nn1 (centres unmarked)	HPLC	aqueous buffer, 20% acetonitrile	concentration not given, 43 min, pH 3	baseline: initial prodrug amount	release from prodrug hydrolysis	93.5%
Cc1noc(C)c1Cn1cc(N2C(=O)CN(Cc3cccc(O[C@@H]4O[C@H](C(=O)O)[C@@H](O)[C@H](O)[C@H]4O)c3)C2=O)cn1	–	Sprague-Dawley rat, male	oral, 100 mg/kg of parent drug, 24 h	–	plasma concentration	36 ng/mL
